Measurements of several laboratories.
Each numbered part is a random draw from the data of one study; scales do not carry over between parts.

Set 1 — technique: competition protein-binding microarray; form: double-stranded DNA, one strand shown; sample: in vitro; concentration: 2 µM; added: Pho4 competitor, 0.05 µM; direction: higher = stronger binding; constant ends, left off below: … GTCTTGATTCGCTTGACGCTGCTG
Target: Centromere-binding protein 1, full length, His-tagged (CBF1, Saccharomyces cerevisiae, UniProt P17106, residues 1-351)
UniProt P17106, sequence (whole entry, looked up): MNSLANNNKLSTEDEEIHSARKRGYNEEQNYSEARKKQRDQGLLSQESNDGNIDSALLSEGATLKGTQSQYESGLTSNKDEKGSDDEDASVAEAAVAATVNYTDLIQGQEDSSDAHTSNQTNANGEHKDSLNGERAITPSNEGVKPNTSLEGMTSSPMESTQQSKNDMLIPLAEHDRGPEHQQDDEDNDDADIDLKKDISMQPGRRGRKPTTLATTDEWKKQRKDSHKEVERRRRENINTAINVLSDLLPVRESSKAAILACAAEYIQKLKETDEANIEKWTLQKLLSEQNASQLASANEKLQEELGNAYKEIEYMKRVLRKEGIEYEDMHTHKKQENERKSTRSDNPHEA
Notes: whole 60-bp probe, lowest competitor level
Oligonucleotide | fluorescence intensity [a.u.]
CTTCTGTAAATTTGTAGAGTGGGTGGACGCGCCCCG | 89
CTTCTCGAATCCTAAGGCGTGCAAAGATATGAGAAT | 90
AAGAAAAAATTCACAAGCGTGTCCTTTAGTGCAGCT | 79.7
CTAACGTTGGAGGATCCCGTGACGGTGGAGTATCTC | 439
TCAGGTAGATCTTAGCACGTGTGGAAGCGCATAACA | 1160
GGGCTCTTTGTTTAGCATGTGCCTCATCTCTTTTTC | 169

Set 2 — technique: universal PBM; form: double-stranded DNA, one strand shown; sample: in vitro; concentration: not given; direction: higher = stronger binding
Target: Sal-like protein 4, full length isoform B (SALL4, Homo sapiens, UniProt Q9UJQ4-2, residues 1-616)
Notes: 8-mer, flanks averaged, mean of replicates
Target sequence (chain): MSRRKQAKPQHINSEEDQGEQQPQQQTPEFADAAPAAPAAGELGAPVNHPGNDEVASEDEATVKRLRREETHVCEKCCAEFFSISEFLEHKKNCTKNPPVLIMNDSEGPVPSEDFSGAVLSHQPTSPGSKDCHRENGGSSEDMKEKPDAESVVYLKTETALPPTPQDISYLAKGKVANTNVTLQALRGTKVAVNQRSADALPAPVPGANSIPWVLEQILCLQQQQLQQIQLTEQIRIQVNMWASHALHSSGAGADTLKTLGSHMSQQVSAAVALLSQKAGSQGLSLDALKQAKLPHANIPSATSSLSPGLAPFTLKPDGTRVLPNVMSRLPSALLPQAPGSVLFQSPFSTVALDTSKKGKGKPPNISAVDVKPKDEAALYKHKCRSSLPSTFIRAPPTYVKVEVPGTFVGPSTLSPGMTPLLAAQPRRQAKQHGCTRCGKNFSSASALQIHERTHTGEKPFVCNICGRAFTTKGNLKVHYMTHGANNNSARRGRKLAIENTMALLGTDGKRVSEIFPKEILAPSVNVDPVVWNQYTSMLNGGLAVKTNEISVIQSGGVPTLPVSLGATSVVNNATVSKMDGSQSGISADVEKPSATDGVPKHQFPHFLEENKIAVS
Oligonucleotide | E-score
CTCTAACA | 0.0555
ACTTGTAC | 0.0412
ATCCGCAA | 0.023
ATTCCTAG | 0.0908

Set 3 — technique: protein binding microarray; form: double-stranded DNA, one strand shown; sample: in vitro; concentration: not given; baseline: not given; direction: higher = stronger binding
Target: Histone acetyltransferase KAT6A, winged helix 1, GST fusion (KAT6A, Homo sapiens, UniProt Q92794, residues 1-85)
Notes: 8-mer, flanks averaged, mean of 2 arrays, mostly near background
Residues (chain): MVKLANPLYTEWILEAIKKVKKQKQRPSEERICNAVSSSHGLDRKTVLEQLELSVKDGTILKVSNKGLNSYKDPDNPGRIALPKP
Oligonucleotide | E-score
AAGCTGCC | -0.0364
AAGCGACT | -0.118
GATCAAAC | -0.0686
AACCATGT | -0.0982
GATAAATA | -0.0509
ATTTAATC | -0.159

Other studies, line by line
Molecule | target | assay | system | setting | how to read | measurement | result
PhoQ, residues 284 288 289 292 302 303 SLCLSL | PhoP, residues 12 14 15 18 19 SGWQI (Escherichia coli, UniProt P23836) | Sort-seq, measured: YFP reporter | E. coli | PhoQ-PhoP variant library, added: 10 µM Mg2+ | baseline: high Mg2+ state, higher = stronger signaling | fold induction | 4.89
